Published values pooled from the literature.
Each line is one published result; not all experiments were run side by side. ± gives the spread as reported.

Compound | test system | setting | how to read | tissue uptake
COc1ccc(C)cc1NC(=O)OC1CC2CCCC(C1)N2Cc1ccc(CC[18F])cc1 (centres unmarked) | BALB/c mice, EMT6 tumour, liver | 30 min | – | 28.5 ± 1.82 %ID/g
COc1cc2ncnc(Oc3cccc(N[11C](=O)Nc4cc(C(C)(C)C(F)(F)F)on4)c3)c2cc1OC | Balb/c nude mouse, female, A375 melanoma xenograft, brain | 6.6 MBq, 60 min | – | 0.15 %ID/g
N=C(N)NCc1ccc(C(=O)NCCCC[C@H](NC(=O)CCCCCCC(=O)NCCCC[C@H](NC(=O)N[C@@H](CCC(=O)O)C(=O)O)C(=O)O)C(=O)O)cc1[211At] | SCID mouse, PC-3 xenografts, bone | 2 h | – | 0.4 ± 0.04 %ID/g
CN[C@](C)(C[18F])C(=O)O | SCID mouse A549 xenograft, spleen | 60 min, post injection | – | 5.6 ± 1.5 %ID/g
CCN(CC)c1ccc2c(-c3ccccc3C(=O)OCCOCC[18F])c3ccc(=[N+](CC)CC)cc-3oc2c1 | rat, blood | 60 min | – | 0.25 ± 0.02 %ID/g
CN(C)c1ccc(C(=O)NCCCCN2CCN(c3ccccc3O[11CH3])CC2)cc1 | male Sprague Dawley rat, blood | iv, 5 min | baseline: untreated | 0.057 ± 0.011 %ID/g
N=C(N)NCc1ccc(C(=O)NCCCC[C@H](NC(=O)N[C@@H](CCC(=O)O)C(=O)O)C(=O)O)cc1[131I] | SCID mouse, PC-3 xenografts, brain | 2 h | – | 0.06 ± 0.02 %ID/g
O=C(c1ccc(F)cc1)C1CCN(C2Cc3c(cccc3OCC[18F])CC2O)CC1 (single isomer, unassigned; (-)) | Sprague-Dawley rat, male, muscle | intravenous, dose not given, 30 min | – | 0.258 ± 0.025 %ID/g
O=C(O)CC[C@H](NC(=O)O[C@@H](CCCCNC(=O)c1ccc([18F])cc1)C(=O)O)C(=O)O | mouse, PC-3 PIP/flu xenografts, small intestine | 60 min | – | 0.54 ± 0.19 %ID/g
C=Cc1cc(O)cc2nc(-c3ccc(O)c([76Br])c3)oc12 | female C57BL/6 mouse, kidney | 1 h, high dose, with: estradiol 20 µg blocking | – | 0.93 ± 0.23 %ID/g
N=C(N)NCc1ccc(C(=O)NCCCC[C@H](NC(=O)N[C@@H](CCC(=O)O)C(=O)O)C(=O)O)cc1[211At] | SCID mouse, PC-3 xenografts, thyroid | 2 h | – | 0.77 ± 0.25 %ID/g
CCNc1cc2[o+]c3cc(NCC)c(C)cc3c(-c3ccccc3C(=O)OCCOCC[18F])c2cc1C | rat, gut | 15 min | – | 3.83 ± 3.5 %ID/g
CCN(CC)c1ccc2c(-c3ccccc3C(=O)OCCC[18F])c3ccc(=[N+](CC)CC)cc-3oc2c1 | rat, spleen | 60 min | – | 3.82 ± 0.32 %ID/g
N=C(N)NCc1ccc(C(=O)NCCCC[C@H](NC(=O)CCCCCCC(=O)NCCCC[C@H](NC(=O)N[C@@H](CCC(=O)O)C(=O)O)C(=O)O)C(=O)O)cc1[131I] | SCID mouse, PC-3 xenografts, brain | 2 h | – | 0.04 ± 0.02 %ID/g

For quick reference, copied from above:
Compound | test system | setting | how to read | tissue uptake
O=C(O)CC[C@H](NC(=O)O[C@@H](CCCCNC(=O)c1ccc([18F])cc1)C(=O)O)C(=O)O | mouse, PC-3 PIP/flu xenografts, small intestine | 60 min | – | 0.54 ± 0.19 %ID/g
